Experimental data collected from several papers.
Compare with care: the assays were run in different laboratories. ± gives the spread as reported.
FFAR2: Free fatty acid receptor 2 (FFAR2, Homo sapiens, UniProt O15552)
Chain of UniProt O15552 (whole entry, looked up): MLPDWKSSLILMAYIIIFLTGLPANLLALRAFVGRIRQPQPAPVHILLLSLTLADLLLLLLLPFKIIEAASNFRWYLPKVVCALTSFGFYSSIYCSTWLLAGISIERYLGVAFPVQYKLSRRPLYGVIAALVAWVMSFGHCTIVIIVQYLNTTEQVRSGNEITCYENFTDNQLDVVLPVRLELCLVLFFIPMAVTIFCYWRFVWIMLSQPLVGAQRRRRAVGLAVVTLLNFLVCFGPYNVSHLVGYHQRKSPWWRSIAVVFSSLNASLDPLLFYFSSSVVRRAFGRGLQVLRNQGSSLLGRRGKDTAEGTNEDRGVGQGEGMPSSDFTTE
Sctr: Sctr (Rattus norvegicus, UniProt P23811)
Chain of UniProt P23811 (whole entry, looked up): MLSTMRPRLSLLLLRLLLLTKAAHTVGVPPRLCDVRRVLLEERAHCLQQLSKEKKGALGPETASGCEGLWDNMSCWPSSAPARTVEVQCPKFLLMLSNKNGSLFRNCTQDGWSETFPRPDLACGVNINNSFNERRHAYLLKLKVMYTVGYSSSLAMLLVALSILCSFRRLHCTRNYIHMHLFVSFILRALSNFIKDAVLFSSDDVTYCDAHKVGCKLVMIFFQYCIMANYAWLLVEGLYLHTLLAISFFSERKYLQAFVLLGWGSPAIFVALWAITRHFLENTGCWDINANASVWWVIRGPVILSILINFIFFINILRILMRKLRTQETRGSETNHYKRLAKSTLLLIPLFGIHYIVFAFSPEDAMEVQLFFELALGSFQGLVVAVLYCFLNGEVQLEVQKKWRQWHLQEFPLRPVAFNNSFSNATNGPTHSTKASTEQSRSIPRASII
Chain of UniProt P30550 (whole entry, looked up): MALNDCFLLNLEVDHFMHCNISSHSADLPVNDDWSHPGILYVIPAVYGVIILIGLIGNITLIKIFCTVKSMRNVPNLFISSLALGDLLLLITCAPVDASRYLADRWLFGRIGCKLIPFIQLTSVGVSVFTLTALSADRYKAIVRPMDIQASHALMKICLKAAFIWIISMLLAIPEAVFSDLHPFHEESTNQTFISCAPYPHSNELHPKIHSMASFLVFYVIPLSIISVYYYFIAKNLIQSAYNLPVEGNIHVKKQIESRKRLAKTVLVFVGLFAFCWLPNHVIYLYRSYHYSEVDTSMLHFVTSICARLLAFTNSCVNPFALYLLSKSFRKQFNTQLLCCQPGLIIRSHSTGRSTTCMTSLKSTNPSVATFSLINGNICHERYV
Chain of UniProt Q60755 (whole entry, unmodified, looked up): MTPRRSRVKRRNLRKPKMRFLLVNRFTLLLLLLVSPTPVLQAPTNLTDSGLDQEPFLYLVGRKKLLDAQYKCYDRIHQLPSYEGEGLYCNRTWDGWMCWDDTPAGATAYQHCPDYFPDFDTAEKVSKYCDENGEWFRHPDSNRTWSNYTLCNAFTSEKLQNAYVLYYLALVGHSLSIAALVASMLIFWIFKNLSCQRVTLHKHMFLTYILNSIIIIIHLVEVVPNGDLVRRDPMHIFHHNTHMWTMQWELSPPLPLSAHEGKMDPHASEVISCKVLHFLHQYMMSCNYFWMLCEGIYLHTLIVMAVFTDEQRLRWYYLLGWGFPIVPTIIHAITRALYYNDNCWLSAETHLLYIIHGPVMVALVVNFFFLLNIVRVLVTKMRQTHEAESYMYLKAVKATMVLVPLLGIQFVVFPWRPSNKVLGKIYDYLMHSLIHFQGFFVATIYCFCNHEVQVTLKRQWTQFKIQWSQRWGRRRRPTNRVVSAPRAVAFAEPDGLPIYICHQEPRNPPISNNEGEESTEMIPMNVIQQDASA
Chain of UniProt Q9WUP0 (whole entry, unmodified, looked up): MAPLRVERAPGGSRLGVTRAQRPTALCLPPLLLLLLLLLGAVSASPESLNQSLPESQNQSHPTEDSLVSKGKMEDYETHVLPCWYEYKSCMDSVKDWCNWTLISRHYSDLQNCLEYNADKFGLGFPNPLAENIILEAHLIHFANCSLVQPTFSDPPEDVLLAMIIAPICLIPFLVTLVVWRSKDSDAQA
Chain of UniProt P34972 (whole entry, looked up): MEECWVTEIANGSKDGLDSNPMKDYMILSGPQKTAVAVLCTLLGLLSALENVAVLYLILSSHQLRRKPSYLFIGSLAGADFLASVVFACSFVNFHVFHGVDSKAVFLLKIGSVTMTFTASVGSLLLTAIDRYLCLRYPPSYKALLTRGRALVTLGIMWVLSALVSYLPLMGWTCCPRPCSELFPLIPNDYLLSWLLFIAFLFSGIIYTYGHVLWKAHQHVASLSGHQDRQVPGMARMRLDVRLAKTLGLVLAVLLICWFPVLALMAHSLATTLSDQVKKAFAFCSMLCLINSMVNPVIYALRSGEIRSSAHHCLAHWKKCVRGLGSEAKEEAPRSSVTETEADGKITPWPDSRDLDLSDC
Chain of UniProt Q9UL62 (whole entry, looked up): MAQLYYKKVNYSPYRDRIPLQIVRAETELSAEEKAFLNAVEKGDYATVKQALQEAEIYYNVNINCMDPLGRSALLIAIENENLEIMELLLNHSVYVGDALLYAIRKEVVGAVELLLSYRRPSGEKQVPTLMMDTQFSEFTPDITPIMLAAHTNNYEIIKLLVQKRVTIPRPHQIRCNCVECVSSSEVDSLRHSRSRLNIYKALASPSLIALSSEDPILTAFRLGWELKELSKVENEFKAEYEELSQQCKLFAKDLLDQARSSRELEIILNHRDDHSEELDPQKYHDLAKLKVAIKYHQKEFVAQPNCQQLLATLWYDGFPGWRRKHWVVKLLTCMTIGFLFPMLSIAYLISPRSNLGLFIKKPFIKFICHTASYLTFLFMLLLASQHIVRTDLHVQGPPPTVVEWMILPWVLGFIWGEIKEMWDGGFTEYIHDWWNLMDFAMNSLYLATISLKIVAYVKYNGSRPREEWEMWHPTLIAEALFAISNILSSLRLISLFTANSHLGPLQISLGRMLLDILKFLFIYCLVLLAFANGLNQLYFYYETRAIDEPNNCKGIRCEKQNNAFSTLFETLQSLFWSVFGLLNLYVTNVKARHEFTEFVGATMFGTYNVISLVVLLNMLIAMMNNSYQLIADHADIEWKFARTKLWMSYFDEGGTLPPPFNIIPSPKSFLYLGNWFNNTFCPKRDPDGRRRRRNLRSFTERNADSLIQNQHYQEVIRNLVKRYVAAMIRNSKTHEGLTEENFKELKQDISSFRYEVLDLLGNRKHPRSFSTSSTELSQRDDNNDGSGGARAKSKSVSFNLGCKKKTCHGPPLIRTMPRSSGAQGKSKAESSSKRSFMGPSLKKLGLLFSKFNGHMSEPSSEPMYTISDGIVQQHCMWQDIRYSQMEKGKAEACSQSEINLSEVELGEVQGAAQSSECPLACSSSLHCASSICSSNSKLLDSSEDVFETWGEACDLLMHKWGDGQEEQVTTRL
Chain of UniProt Q8NER1 (whole entry, looked up): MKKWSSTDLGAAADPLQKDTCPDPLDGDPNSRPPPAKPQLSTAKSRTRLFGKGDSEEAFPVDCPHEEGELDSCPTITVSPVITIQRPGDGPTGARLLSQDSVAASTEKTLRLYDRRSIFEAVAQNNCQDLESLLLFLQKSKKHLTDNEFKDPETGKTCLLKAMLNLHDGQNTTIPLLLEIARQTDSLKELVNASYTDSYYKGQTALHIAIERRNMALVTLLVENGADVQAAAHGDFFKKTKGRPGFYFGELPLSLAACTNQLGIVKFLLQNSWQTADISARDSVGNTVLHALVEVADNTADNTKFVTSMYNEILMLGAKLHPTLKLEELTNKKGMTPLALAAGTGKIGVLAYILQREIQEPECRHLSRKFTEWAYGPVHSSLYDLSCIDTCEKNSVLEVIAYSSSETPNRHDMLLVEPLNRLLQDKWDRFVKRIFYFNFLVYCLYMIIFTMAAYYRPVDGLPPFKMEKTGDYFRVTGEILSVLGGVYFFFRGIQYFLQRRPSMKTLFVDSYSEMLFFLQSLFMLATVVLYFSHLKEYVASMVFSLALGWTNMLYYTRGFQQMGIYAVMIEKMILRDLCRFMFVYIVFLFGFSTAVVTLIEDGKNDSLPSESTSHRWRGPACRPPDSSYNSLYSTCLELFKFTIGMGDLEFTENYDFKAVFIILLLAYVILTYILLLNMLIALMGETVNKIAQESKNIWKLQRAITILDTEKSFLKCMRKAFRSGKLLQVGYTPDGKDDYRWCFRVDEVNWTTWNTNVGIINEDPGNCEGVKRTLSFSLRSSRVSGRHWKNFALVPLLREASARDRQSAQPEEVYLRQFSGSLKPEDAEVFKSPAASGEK

COc1cc(CNC(=O)C[C@H](C)CCC=C(C)C)ccc1OCc1cn(-c2cccc([N+](=O)[O-])c2)nn1  growth percent (MDA-MB-468 breast cancer cells; SRB; 10 µM, 48 h): 56.6%
C[C@@]1(c2nc(-c3ccc(F)c4cn[nH]c34)no2)CCCN(C(=O)c2ccc(F)nc2)C1  EC50 (CNR2 (Homo sapiens, UniProt P34972); cAMP, agonist, luciferase): 0.0081 µM
Cn1c(=O)n(CCCO)c(=O)c2c1nc(Oc1cccc(C3(C(F)(F)F)N=N3)c1)n2Cc1ccc(Cl)cc1  EC50 (TRPC5 (Homo sapiens, UniProt Q9UL62); calcium signal, agonist, fluorescence): 0.013 µM
CC[C@H](C)[C@H](NC(=O)[C@H](CCC(N)=O)NC(=O)[C@H](Cc1c[nH]cn1)NC(=O)[C@H](C)NC(=O)[C@H](CC(C)C)NC(=O)[C@H](CCCCN)NC(=O)[C@H](CCC(N)=O)NC(=O)[C@@H](NC(=O)[C@@H](NC(=O)[C@@H]1CSSC[C@H](NC(=O)CNC(=O)[C@H](Cc2ccccc2)NC(=O)[C@H](CO)NC(=O)[C@H](CCCNC(=N)N)NC(=O)[C@H](CC(C)C)NC(=O)CNC(=O)[C@H](CCC(N)=O)NC(=O)[C@H](Cc2ccccc2)NC(=O)[C@H](CC(N)=O)NC(=O)[C@H](CC(N)=O)NC(=O)[C@H](CCSC)NC(=O)[C@H](CO)NC(=O)[C@H](CCC(N)=O)NC(=O)[C@H](CCCNC(=N)N)NC(=O)[C@@H](N)Cc2ccc(O)cc2)C(=O)N[C@@H](CCCNC(=N)N)C(=O)N[C@@H](Cc2ccccc2)C(=O)NCC(=O)N[C@@H]([C@@H](C)O)C(=O)N1)[C@@H](C)O)C(C)C)C(=O)N[C@@H](Cc1ccc(O)cc1)C(=O)N[C@@H](CCC(N)=O)C(=O)N[C@@H](Cc1ccccc1)C(=O)N[C@H](C(=O)N[C@@H](CC(=O)O)C(=O)N[C@@H](CCCCN)C(=O)N[C@@H](CC(=O)O)C(=O)N[C@@H](CCCCN)C(=O)N[C@@H](CC(=O)O)C(=O)N[C@@H](CC(N)=O)C(=O)N[C@H](C(=O)N[C@@H](C)C(=O)N1CCC[C@H]1C(=O)N[C@@H](CCCNC(=N)N)C(=O)N[C@@H](CO)C(=O)N[C@@H](CCCCN)C(=O)N[C@H](C(=O)N[C@@H](CO)C(=O)N1CCC[C@H]1C(=O)N[C@@H](CCC(N)=O)C(=O)NCC(=O)N[C@@H](Cc1ccc(O)cc1)C(N)=O)[C@@H](C)CC)C(C)C)[C@@H](C)O  EC50 (Calcr/Ramp2 (Mus musculus, UniProt Q60755+Q9WUP0, P10T); cAMP production, agonist; COS-7, transfected; 15 min, 37 °C, together with: IBMX 1 mM): 0.1 µM
CSCC[C@H](NC(=O)[C@H](CC(C)C)NC(=O)[C@H](Cc1c[nH]cn1)NC(=O)[C@@H](C)NC(=O)[C@@H](NC(=O)[C@H](C)NC(=O)[C@H](Cc1c[nH]c2ccccc12)NC(=O)[C@H](CCC(N)=O)NC(=O)[C@H](CC(N)=O)NC(=O)CNC(=O)[C@H](CC(C)C)NC(=O)[C@H](CCCNC(=N)N)NC(=O)[C@H](CCC(N)=O)NC(=O)[C@@H]1CCC(=O)N1)C(C)C)C(N)=O  EC50 (GRPR (Homo sapiens, UniProt P30550); inositol phosphate formation, agonist; HuTu80; 45 min, 37 °C; baseline: 1 µM GRP): 0.0012 ± 8e-05 µM
CC(C)[C@H](C(=O)Nc1ncc(F)s1)c1ccc(Cl)cc1  EC50 (FFAR2; calcium signal, agonist): 7.67 µM
COc1cc(CNC(=O)C[C@H](C)CCC=C(C)C)ccc1OCc1cn(-c2ccccc2F)nn1  growth percent (OVCAR-4 ovarian cancer cells; SRB; 10 µM, 48 h): 71.4%
CC(C)C[C@H](NC(=O)CNC(=O)[C@H](CCC(N)=O)NC(=O)[C@H](CC(C)C)NC(=O)[C@H](CC(C)C)NC(=O)[C@H](CCCNC(=N)N)NC(=O)[C@H](CCC(N)=O)NC(=O)[C@H](CC(C)C)NC(=O)[C@H](CCCNC(=N)N)NC(=O)[C@H](C)NC(=O)[C@H](CO)NC(=O)[C@H](CC(=O)O)NC(=O)[C@H](CCC(N)=O)NC(=O)[C@H](CC(C)C)NC(=O)[C@H](C)NC(=O)[C@H](CO)NC(=O)[C@H](CC(C)C)NC(=O)[C@H](CCC(=O)O)NC(=O)[C@H](CO)NC(=O)[C@@H](NC(=O)[C@H](Cc1ccccc1)NC(=O)[C@@H](NC(=O)CNC(=O)[C@H](CC(=O)O)NC(=O)[C@H](CO)NC(=O)[C@@H](N)Cc1c[nH]cn1)[C@@H](C)O)[C@@H](C)O)C(=O)N[C@H](C(N)=O)C(C)C  EC50 (Sctr; cAMP production, agonist; CHO-SecR; 30 min, 37 °C, together with: 1 mM IBMX): 0.0003 ± 9e-05 µM
C#CCC(=O)O  EC50 (FFAR2; agonist): > 10000 µM
CC(C)C[C@H](NC(=O)CNC(=O)[C@H](CCC(N)=O)NC(=O)[C@H](CC(C)C)NC(=O)[C@H](CC(C)C)NC(=O)[C@H](CCCNC(=N)N)NC(=O)[C@H](CCC(N)=O)NC(=O)[C@H](CC(C)C)NC(=O)[C@H](CCCNC(=N)N)NC(=O)[C@H](C)NC(=O)[C@H](CO)NC(=O)[C@H](CC(=O)O)NC(=O)[C@H](CCC(N)=O)NC(=O)[C@H](CC(C)C)NC(=O)[C@H](CCCNC(=N)N)NC(=O)[C@H](CO)NC(=O)[C@H](CC(C)C)NC(=O)[C@H](C)NC(=O)[C@H](CO)NC(=O)[C@@H](NC(=O)[C@H](Cc1ccccc1)NC(=O)[C@@H](NC(=O)CNC(=O)[C@H](CC(=O)O)NC(=O)[C@H](CO)NC(=O)[C@@H](N)Cc1c[nH]cn1)[C@@H](C)O)[C@@H](C)O)C(=O)N[C@H](C(N)=O)C(C)C  EC50 (Sctr; cAMP production, agonist; CHO-SecR; 30 min, 37 °C, together with: 1 mM IBMX): 0.0085 ± 0.0018 µM
COc1cc(CC2=NCC(c3ccccc3)O2)ccc1O (centres unmarked)  EC50 (TRPV1 (Homo sapiens, UniProt Q8NER1); calcium signal, agonist): > 10 µM

For quick reference, copied from above:
CC(C)C[C@H](NC(=O)CNC(=O)[C@H](CCC(N)=O)NC(=O)[C@H](CC(C)C)NC(=O)[C@H](CC(C)C)NC(=O)[C@H](CCCNC(=N)N)NC(=O)[C@H](CCC(N)=O)NC(=O)[C@H](CC(C)C)NC(=O)[C@H](CCCNC(=N)N)NC(=O)[C@H](C)NC(=O)[C@H](CO)NC(=O)[C@H](CC(=O)O)NC(=O)[C@H](CCC(N)=O)NC(=O)[C@H](CC(C)C)NC(=O)[C@H](C)NC(=O)[C@H](CO)NC(=O)[C@H](CC(C)C)NC(=O)[C@H](CCC(=O)O)NC(=O)[C@H](CO)NC(=O)[C@@H](NC(=O)[C@H](Cc1ccccc1)NC(=O)[C@@H](NC(=O)CNC(=O)[C@H](CC(=O)O)NC(=O)[C@H](CO)NC(=O)[C@@H](N)Cc1c[nH]cn1)[C@@H](C)O)[C@@H](C)O)C(=O)N[C@H](C(N)=O)C(C)C  EC50 (Sctr; cAMP production, agonist; CHO-SecR; 30 min, 37 °C, together with: 1 mM IBMX): 0.0003 ± 9e-05 µM
